Published values from different studies.
Several values in a cell are separate wells, animals, samples, runs or records. Numbers after ± are the reported error.
CASP7: Caspase-7 (CASP7, Homo sapiens, UniProt P55210)
Chain of UniProt P55210 (whole entry, looked up): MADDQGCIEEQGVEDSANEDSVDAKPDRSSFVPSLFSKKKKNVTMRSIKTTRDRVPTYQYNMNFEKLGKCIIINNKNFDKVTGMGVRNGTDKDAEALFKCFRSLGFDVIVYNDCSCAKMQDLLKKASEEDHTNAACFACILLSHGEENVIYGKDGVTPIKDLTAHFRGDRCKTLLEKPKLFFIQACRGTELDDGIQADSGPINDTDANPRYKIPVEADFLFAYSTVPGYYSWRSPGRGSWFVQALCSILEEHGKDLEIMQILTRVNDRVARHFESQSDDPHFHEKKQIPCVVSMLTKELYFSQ
T1: G-quadruplex DNA (Homo sapiens); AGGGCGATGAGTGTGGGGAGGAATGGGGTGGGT
Chain of UniProt P35821 (whole entry, looked up): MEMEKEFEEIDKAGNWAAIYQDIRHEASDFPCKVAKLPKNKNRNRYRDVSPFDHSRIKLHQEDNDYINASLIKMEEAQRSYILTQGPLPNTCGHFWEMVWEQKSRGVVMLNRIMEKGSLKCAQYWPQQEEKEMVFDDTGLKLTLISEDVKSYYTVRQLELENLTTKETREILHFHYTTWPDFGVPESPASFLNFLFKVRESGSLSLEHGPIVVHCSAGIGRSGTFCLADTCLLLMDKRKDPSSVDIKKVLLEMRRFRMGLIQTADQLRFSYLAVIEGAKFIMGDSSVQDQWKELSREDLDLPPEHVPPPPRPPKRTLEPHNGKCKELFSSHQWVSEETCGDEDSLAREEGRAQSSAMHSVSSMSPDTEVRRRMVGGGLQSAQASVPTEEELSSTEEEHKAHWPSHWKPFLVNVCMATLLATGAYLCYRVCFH
Chain of UniProt P00921 (whole entry, looked up): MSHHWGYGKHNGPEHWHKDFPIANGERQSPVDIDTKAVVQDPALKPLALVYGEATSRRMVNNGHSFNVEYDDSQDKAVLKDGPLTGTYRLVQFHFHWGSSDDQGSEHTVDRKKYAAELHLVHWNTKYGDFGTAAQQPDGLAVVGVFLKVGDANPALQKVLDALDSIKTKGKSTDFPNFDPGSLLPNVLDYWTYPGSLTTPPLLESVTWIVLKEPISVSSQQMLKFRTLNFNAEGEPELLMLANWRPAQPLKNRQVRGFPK
Chain of UniProt P28482 (whole entry, looked up): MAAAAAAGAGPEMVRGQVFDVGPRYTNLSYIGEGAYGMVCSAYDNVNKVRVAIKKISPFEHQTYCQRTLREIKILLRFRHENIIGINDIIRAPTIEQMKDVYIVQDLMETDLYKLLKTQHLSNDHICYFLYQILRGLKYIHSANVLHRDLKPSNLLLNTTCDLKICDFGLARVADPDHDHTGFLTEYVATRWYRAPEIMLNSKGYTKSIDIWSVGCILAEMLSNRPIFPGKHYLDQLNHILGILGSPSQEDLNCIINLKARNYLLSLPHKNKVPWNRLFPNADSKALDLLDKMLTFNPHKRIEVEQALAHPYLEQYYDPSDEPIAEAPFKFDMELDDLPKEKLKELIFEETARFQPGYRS
Chain of UniProt P02716 (whole entry, unmodified, looked up): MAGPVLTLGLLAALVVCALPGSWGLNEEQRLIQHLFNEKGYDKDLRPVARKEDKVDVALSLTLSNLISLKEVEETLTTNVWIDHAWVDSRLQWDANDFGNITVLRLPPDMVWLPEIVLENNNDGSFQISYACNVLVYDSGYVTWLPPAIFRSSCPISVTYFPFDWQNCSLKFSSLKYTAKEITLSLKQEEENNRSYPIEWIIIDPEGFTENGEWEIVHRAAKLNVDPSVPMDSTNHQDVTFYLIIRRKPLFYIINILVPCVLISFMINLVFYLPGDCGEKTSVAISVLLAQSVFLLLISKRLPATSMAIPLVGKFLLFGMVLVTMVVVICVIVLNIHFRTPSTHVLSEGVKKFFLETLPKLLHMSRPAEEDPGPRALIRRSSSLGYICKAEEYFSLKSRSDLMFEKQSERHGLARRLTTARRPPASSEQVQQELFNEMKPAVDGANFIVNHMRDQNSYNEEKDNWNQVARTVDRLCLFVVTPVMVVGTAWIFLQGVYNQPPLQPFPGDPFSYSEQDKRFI
Chain of UniProt P45983 (whole entry, looked up): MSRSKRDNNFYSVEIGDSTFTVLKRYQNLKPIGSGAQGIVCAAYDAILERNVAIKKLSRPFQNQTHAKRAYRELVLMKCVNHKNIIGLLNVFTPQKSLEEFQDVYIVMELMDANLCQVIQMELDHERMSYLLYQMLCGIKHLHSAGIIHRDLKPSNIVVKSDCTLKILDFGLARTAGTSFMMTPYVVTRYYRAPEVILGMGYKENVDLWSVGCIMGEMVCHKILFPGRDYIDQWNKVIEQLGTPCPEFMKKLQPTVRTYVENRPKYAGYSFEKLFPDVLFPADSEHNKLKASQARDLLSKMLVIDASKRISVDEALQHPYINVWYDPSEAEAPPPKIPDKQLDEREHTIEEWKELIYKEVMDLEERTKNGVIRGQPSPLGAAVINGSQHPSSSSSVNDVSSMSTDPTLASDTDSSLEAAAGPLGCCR
Chain of UniProt Q03431 (whole entry, looked up): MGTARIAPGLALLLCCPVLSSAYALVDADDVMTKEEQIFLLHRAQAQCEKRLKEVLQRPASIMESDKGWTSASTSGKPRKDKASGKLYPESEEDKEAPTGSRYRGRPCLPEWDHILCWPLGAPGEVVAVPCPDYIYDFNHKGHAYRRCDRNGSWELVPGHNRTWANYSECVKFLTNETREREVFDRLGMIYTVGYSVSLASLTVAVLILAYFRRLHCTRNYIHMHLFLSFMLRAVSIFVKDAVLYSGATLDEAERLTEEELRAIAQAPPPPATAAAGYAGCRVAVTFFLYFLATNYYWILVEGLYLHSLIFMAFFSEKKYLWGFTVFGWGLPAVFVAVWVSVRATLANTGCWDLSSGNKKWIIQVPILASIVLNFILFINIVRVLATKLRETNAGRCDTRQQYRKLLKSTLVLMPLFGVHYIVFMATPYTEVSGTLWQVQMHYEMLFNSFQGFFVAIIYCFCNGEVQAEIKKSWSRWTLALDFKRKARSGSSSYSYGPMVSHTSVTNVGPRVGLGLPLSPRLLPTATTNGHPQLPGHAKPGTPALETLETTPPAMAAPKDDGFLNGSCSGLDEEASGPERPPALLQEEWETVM
Chain of UniProt P20782 (whole entry, unmodified, looked up): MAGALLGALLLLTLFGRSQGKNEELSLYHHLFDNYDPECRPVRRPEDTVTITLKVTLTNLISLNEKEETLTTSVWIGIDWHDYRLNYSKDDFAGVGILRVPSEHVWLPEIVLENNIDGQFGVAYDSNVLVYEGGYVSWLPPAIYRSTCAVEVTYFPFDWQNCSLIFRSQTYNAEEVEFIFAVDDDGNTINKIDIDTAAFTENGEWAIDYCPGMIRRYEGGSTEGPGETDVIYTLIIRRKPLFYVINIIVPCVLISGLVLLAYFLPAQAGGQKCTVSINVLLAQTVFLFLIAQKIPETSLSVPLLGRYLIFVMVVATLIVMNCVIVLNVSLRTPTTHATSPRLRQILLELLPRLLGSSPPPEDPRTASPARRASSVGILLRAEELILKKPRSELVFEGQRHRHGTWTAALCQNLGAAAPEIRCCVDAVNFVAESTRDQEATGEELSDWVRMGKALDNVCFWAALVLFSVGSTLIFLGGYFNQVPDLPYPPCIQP
Chain of UniProt O94966 (whole entry, looked up): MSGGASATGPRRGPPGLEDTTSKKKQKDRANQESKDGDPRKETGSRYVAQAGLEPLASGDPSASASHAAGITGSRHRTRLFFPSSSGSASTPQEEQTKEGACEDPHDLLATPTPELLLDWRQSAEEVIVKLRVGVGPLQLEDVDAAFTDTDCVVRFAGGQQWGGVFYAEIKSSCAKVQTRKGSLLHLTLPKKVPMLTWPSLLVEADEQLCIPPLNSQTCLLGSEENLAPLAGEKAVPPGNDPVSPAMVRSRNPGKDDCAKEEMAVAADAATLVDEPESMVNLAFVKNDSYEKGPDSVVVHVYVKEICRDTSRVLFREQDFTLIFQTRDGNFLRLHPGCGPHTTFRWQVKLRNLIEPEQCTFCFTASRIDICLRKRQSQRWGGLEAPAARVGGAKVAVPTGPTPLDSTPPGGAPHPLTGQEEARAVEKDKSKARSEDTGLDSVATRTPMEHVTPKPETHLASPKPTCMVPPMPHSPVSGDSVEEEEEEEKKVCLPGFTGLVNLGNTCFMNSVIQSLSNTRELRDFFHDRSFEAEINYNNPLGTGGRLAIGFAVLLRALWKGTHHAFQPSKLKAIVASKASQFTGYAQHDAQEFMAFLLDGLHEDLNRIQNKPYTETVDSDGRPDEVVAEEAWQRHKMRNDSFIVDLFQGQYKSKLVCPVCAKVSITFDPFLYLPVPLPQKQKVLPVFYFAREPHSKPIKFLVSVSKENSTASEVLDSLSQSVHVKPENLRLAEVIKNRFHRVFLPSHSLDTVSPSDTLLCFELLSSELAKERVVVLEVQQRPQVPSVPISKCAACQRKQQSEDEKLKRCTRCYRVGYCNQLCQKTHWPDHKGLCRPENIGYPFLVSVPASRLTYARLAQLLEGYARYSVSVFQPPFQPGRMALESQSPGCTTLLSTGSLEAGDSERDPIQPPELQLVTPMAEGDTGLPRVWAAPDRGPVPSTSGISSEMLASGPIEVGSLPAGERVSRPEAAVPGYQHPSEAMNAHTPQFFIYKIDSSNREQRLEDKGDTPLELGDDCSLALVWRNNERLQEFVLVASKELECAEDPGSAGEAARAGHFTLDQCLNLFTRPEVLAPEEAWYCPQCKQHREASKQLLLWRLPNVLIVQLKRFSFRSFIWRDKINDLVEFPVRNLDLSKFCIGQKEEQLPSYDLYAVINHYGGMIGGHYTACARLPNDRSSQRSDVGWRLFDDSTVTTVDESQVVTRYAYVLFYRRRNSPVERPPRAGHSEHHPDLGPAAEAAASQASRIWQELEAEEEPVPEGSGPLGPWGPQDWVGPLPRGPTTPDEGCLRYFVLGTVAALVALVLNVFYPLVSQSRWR

`N#CN1CC[C@H](C(=O)Nc2nc3c(s2)CN(C(=O)Cn2cc(CNC(=O)CCCC[C@@H]4SC[C@@H]5NC(=O)N[C@@H]54)nn2)CC3)C1` has an iBAQ abundance of 1.62e+06 (USP19 (Homo sapiens, UniProt O94966); probe binding, affinity probe, neutravidin pull-down LC-MS/MS; HEK293T, cell lysate; 5 µM, 1 h, mean of three replicates, unit not given; higher = more pulled down).
`COC(=O)[C@@]1(C)C=C(C(=O)Nc2cccc(C(=O)Nc3ccc(Nc4nccc(-c5cccnc5)n4)c(C)c3)c2)C(=O)CC1` gave a remaining activity of 0.188 (Mitogen-activated protein kinase 8, phosphorylated (MAPK8, Homo sapiens, UniProt P45983); enzyme activity after dialysis, inhibitor; 10 µM, 3 days, unit not given; baseline: no inhibitor).
`CCOC(=O)C(CC)(CCCSCCOCCN)NC(=O)c1ccc(C2CC2)c(Cc2ccc(F)cc2)n1` (centres unmarked) has a Ki ratio of 3 (CNR2 (Homo sapiens, UniProt P34972); radioligand binding; baseline: CB1 over CB2 (human)).
`CNc1ccc(-c2n[nH]c3c2CCN(C(=O)c2ccccc2)C3)cc1` — result for “number of kinases hit”: 2 (human kinase panel; binding, KINOMEscan; 10000 nM, %Ctrl below 10).
For `CN(C)c1ccc(C2=C/C(=C/C=C/c3sc4ccccc4[n+]3C)c3ccccc3O2)cc1`, binding read “binds” (T1, G-quadruplex DNA (Homo sapiens); fluorescence turn-on).
For `Cn1c(=O)n(C2CCC(=O)NC2=O)c2ccc(C3CCN(CC(=O)Nc4cccc(CS(=O)(=O)N5CC[C@H](Nc6cccc(-c7sc(C(=O)O)c(OCC(=O)O)c7Cl)c6)CC5(C)C)c4)CC3)cc21` (some centres unmarked), the remaining protein was 64.4% and 56.2% (Tyrosine-protein phosphatase non-receptor type 1 (Mus musculus, UniProt P35821); degrader, Western blot; B16-F10; 0.01 µM).
`O=C(O)Cc1cc2c(cc1C(=O)c1ccccc1Cl)OCO2`: “current amplitude after recovery” 1320 ± 61 pA (Gria2 (Rattus norvegicus, UniProt P19491); glutamate-evoked current, whole-cell patch clamp; HEK-293T; concentration not given, glutamate alone after washout, with: glutamate).
With `CC(=O)N1C[C@H](O)C[C@H]1C(=O)N[C@H](C(=O)N[C@@H](CO)C(=O)N[C@@H](CC(=O)O)C(=O)COC(=O)c1c(C)cccc1C)C(C)(C)C` the kinact/KI was 4100 M⁻¹ s⁻¹ (CASP7; enzyme activity, inhibitor).
For `CCCCCC=CC=C1C(=O)C=CC1CC=CCCCC(=O)O` (centres unmarked), “isoTOP-ABPP competition ratio” read 4.3 (MTHFD1L (Homo sapiens, UniProt Q6UB35); competitive isoTOP-ABPP; Ramos soluble proteome; 100 µM, 60 min, with: iodoacetamide probe; baseline: DMSO over compound-treated, higher = stronger cysteine blockade).
`CC(=O)N[C@H](C(=O)N[C@@H](CCC(=O)O)C(=O)N[C@@H](CO)C(=O)N[C@@H](CC(=O)O)C(=O)COC(=O)c1c(C)cccc1C)[C@@H](C)O` gave a kinact/KI of 24500 M⁻¹ s⁻¹ (CASP7; enzyme activity, inhibitor).
With `NS(=O)(=O)c1ccc(N2C(=O)c3ccc(N4CCOCC4)cc3C2=O)cc1` the fluorescence turn-on was 13.5 ± 0.6 fold (CA2 (Bos taurus, UniProt P00921); binding; 2 µM, pH 7.2; baseline: without protein).
For `C[N+]1(C)CCCC1`, the affinity ratio was 1.3 (Chrnd/Chrna1/Chrne (Mus musculus, UniProt P02716+P04756+P20782, G173S/S470W); ligand binding, agonist, single-channel kinetics; chain S; baseline: wild type over mutant).
For `CCCCCCCCCCCCCCCC(=O)NCCCC[C@H](NC(=O)[C@H](CCC(=O)O)NC(=O)[C@H](Cc1ccc(O)cc1)NC(=O)[C@H](CCC(=O)O)NC(=O)COCC(=O)NCCCOCCOCCOCCCNC(=O)[C@H](Cc1c[nH]c2ccccc12)NC(=O)[C@H](CCCCN)NC(=O)[C@H](C)NC(=O)[C@H](CCCCNC(=N)N)NC(=O)[C@H](CCC(N)=O)NC(=O)[C@H](Cc1c[nH]cn1)NC(=O)[C@H](CCSC)NC(=O)[C@H](CC(C)C)NC(=O)[C@H](CCC(N)=O)NC(=O)[C@@H](NC(=O)[C@H](CCC(=O)O)NC(=O)C(C)(C)NC(=O)[C@@H](NC(=O)C(C)(C)N)C(C)C)[C@@H](C)CC)C(=O)N[C@@H](CCC(=O)O)C(=O)N[C@@H](Cc1ccc(O)cc1)C(=O)N[C@@H](CCC(=O)O)C(N)=O`, “cAMP luminescence AUC” read 140 a.u. (PTH1R (Homo sapiens, UniProt Q03431); agonist; Saos-2 with cAMP reporter; 10 pM, 90 min, washout after 30 min ligand; higher = more cAMP).
For `C#CCOC(=O)[C@@]1(C)C=C(C(=O)OC(C)(C)C)C(=O)CC1`, “normalized kinase activity” read 1.05 (MAPK1 (Homo sapiens, UniProt P28482); enzyme activity, D-SENSOR; 4.938 µM, mean of replicates).

Excerpt of the above:
For `C[N+]1(C)CCCC1`, the affinity ratio was 1.3 (Chrnd/Chrna1/Chrne (Mus musculus, UniProt P02716+P04756+P20782, G173S/S470W); ligand binding, agonist, single-channel kinetics; chain S; baseline: wild type over mutant).
